Results gathered from unrelated publications.
Each numbered part is a random draw from the data of one study; scales do not carry over between parts.

Series 1 — technique: RNA Bind-n-Seq; molecule type: RNA; matrix: in vitro; concentration: 365 nM; reference: no-protein control; reading: higher = stronger binding; quantity: RBNS enrichment (R)
Target: RNA binding protein fox-1 homolog 2, RRM domain, GST-SBP tag (RBFOX2, Homo sapiens, UniProt O43251-10, residues 100-194)
Notes: natural RNA segment, single round, ends assumed
Target sequence (chain): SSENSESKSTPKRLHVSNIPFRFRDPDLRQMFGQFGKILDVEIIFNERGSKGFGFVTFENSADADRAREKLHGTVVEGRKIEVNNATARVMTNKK
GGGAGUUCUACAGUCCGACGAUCGUGUGGGCCCUGGAGGGGAAGGAGAGGUGCUUCCCCCAGCCCCCAGCCAGGCUGGGGAGCAGAGCAACCAGCACAGCAUGGCUGCUGCCCUUUUAUUUAUUGGACCAGAAUGGAAUUCUCGGGUGCCAA: 1.18
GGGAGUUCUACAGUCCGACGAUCUCUAAAGUGUUUACCAGAUGCUGAAGGCAAGGGGAGGGAGCAGAAGCACUUAUGUUUACGGAUAUUUUAAACUCUGUUAGAGAGCAGCCUUUGAAAAUCCCCAAUUUGGUUGGAAUUCUCGGGUGCCAA: 1.22
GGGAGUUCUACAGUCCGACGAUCCUUUCUUUCUAACCUUGUUCAGAUUGAGGUGAAAAGUCCAUCUUGCUGAUUUGAUGAUUGAAAUGUGAAAGUGAAGUGGAAGGAAUGAAUGAAGUGUGUUUUUUUUUUCUUGGAAUUCUCGGGUGCCAA: 1.48
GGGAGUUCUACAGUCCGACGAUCCAGAGAGGGCAGCCCGGUCUCCGGCAGCAGCCCCUUCCAGCUCACGGCUUUCUCCGAUGAAGACAUUAUAGACUUGAAGUAACAGAGUUGAAUCUCAUUUGCCAUCUUUAUGGAAUUCUCGGGUGCCAA: 0.289
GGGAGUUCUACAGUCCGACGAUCAGGGAUAUACAAGGUCACAUUUCAGACACCCACUCGGCAUACCCUGCCGUACUGCAUCAUCAUUUGUUUUCUUUGUAGACACUGAAAUCCUAUCAGGAGGAUUCCUUCACUGGAAUUCUCGGGUGCCAA: 0.316
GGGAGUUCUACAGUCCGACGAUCUAUCACUCAAUUUUAAAACUAGUAAUUUACUUUGGCUCAGAAAUGUACUAUAUUUAUAAUUAUUGUAUUAUUUAAAUUAAAUAGAAGGUGAUAGAACUGAUAUUUAAAACUGGAAUUCUCGGGUGCCAA: 0.716
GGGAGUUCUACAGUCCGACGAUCGUACACGCAUCCAGCAAGCACUUGACAAGGUUCCACAGGCCUAGAGAUUUUCUUCUGAGAAGAAUUUGUGUUUAAUUUUUGAUACCAACACUGAACAUUCAUCAGGGAACUGGAAUUCUCGGGUGCCAA: 0.737
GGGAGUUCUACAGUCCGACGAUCGUCAAUGGCUUACAGGCUGCUAAGGAGCAGACUGUACUUUAAAGAGAAUUGUGAUCUUCACCUUCUAAUUGAUUCUUUUUAAAAAAAGAAUUCCUAUAUUUUCAGUGGAUUGGAAUUCUCGGGUGCCAA: 0.597

Series 2 — technique: RNA Bind-n-Seq; molecule type: RNA; matrix: in vitro; concentration: 200 nM; notes: whole 134-nt RNA, ends assumed; with: 150 mM LiCl; reference: input library; reading: higher = stronger binding; quantity: log2 enrichment; library: 7-deaza-guanosine replaces G
Target: Fragile X messenger ribonucleoprotein 1, C-terminal low-complexity region (Fmr1, Mus musculus, UniProt P35922)
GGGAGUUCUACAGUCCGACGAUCAGUCCUGUGCUACACAUCGUAUGUACCGAAUCAAACCCCCAAACCCCCAAAUUUAAAAAAGUAUUAUGUUACGCCGUUCGGAUCUGCACUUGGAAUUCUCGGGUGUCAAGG: 1.3
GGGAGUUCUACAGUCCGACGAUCACCAUGCAGGUGGGCAUCUUUGGGAAGUGGGGCAAGGGGGGGAUAGGGAGGGGGGUAACACUGUGGGAACAGGUGGUCCCAGGUCGUUUCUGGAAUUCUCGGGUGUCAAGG: 1.68
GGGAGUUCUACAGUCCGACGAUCCACAGACAACACGCACCCACACAGACACAGAGGGAAGGGGUUGGGAUGGGGACAGGGGGCACAGCAGGGCGGGGUAGGACCCCAGCCCCUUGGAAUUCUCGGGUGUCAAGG: 0.603
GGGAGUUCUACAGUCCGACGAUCUCCUGUGCUACACAUCGUAUGUACCGAAUCGGGGUUUUUUGGUUUUUUGGUUUUUUGGGGAAAGUAUUAUGUUACGCCGUUCGGAUCUGCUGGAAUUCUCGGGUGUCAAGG: -1.46
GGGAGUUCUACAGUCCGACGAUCUCCUGUGCUACACAUCGUAUGUACCGAAUCAAACCCCCCCAAAUUUUUUUAAAUUUAAAAAAGUAUUAUGUUACGCCGUUCGGAUCUGCAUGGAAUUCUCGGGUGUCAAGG: 1.86
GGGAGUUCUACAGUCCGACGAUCUCAAGUCCUGUGCUACACAUCGUAUGUACCGAAUCGGGAGGGUUUUUGGGAGGGAAAGUAUUAUGUUACGCCGUUCGGAUCUGCACUUCCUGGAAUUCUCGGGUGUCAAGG: -0.875
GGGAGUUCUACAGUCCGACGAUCUCCUCAAGUCCUGUGCUACACAUCGUAUGUACCGAAUCGGAGGAGGGGAGGAAAGUAUUAUGUUACGCCGUUCGGAUCUGCACUUCCAGCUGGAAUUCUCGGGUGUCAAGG: -2.53
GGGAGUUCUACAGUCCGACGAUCUCCUGUGCUACACAUCGUAUGUACCGAAUCGGGGAAAAAAAGGGGUGGGGAAAAAGGGGAAAGUAUUAUGUUACGCCGUUCGGAUCUGCAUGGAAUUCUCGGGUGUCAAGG: -1.96

Series 3 — technique: protein-binding microarray; molecule type: double-stranded DNA, one strand shown; matrix: in vitro; concentration: 2540 nM top; notes: 60-bp whole probe; with: salmon DNA 0.4 mg/ml; reference: random background probes; reading: higher = stronger binding; quantity: fitted relative affinity; constant ends, left off below: GCCTAGCAC … GTCTTGATTCGCTTGACGCTGCTG
Target: Interferon regulatory factor 3, full length, phosphomimetic (IRF3, Homo sapiens, UniProt Q14653, residues 1-427, S386D/S396D/S398D/S402D/T404D/S405D)
UniProt Q14653, sequence (whole entry, unmodified, looked up): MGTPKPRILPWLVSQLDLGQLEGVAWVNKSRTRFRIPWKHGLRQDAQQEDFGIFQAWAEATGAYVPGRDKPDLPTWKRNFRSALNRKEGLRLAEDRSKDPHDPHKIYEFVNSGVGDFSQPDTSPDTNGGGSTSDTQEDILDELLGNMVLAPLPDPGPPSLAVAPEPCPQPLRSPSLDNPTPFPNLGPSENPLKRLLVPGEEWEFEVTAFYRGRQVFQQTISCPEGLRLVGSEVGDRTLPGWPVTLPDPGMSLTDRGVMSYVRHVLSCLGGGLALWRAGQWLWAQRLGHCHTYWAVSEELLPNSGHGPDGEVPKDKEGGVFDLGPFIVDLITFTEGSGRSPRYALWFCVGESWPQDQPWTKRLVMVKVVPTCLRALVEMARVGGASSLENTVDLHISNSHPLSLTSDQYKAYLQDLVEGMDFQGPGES
TTAGAGATCGGGTATCGATTAGTGCTA: 0.169 z-score
GACGATATCGGGACTAGAGACGTGCTA: 0.191 z-score
GGGCATTTGGAAAATGAAAATGTGCTA: 0.274 z-score
CTCATTCTCCACTTGTGTTTGTGCTAG: 2.23 z-score
TTAGGACTGGACACTGGATTAGTGCTA: -0.568 z-score
TTAGGTATCGGGTTTCGGTAAGTGCTA: 3.56 z-score
TTAGATTTCAGTATCGTTTAGTGCTAG: 2.84 z-score
GACGATATTGGGTTTCGAGACGTGCTA: 0.892 z-score
GACGGTTTCGGTATCGGGCCGTGCTAG: 7.94 z-score
GACCGACTGCTACTGCTGACGTGCTAG: -0.366 z-score
TCACATTTGGAAAATGAAACTGTGCTA: 1.82 z-score
TTAGGTTTCGGGACTTGGTTAGTGCTA: 3.78 z-score
TTAGATTTCAGACTTGATTAGTGCTAG: 1.18 z-score
TTAGATTTCGGGTTTGGATTAGTGCTA: 2.22 z-score
TGGCTTTCCTTTATGTCCTGGTGCTAG: 3.81 z-score
TTAGGTTTCGACATTGGGTTAGTGCTA: 2.76 z-score
TGATAAATCTTTGTTGGAGGGGTGCTA: -0.525 z-score
GGGATTTTGTCCTCCCCTCCCGTGCTA: -0.0846 z-score
TCACCCCTAGGGGGCAGTATGTGCTAG: 0.134 z-score

Series 4 — technique: universal PBM; molecule type: double-stranded DNA, one strand shown; matrix: in vitro; concentration: not given; reading: higher = stronger binding; quantity: E-score
Target: Sal-like protein 4, full length isoform B (SALL4, Homo sapiens, UniProt Q9UJQ4-2, residues 1-616)
Notes: 8-mer, flanks averaged, mean of replicates
Target sequence (chain): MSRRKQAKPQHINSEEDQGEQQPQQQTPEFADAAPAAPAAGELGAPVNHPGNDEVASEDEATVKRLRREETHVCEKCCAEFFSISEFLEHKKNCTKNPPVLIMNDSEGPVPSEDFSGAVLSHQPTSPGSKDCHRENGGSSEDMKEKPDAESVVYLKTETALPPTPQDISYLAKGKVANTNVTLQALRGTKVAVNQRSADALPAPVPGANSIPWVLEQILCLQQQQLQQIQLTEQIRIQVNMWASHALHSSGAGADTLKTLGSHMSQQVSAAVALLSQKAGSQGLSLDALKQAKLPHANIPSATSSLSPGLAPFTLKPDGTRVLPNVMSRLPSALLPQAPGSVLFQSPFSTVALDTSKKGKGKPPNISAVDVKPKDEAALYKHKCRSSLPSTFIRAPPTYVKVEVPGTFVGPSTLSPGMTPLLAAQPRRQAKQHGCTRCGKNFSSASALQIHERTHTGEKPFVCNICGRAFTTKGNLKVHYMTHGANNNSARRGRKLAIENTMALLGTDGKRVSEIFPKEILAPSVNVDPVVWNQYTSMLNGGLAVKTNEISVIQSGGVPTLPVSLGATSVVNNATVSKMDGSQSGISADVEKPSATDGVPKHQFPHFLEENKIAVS
CACGCTTC: -0.224
AAAGGGCC: -0.237
TCAGCCAA: -0.0434
CGTGGGAA: -0.111
ATCATAAA: 0.391
ACCATGGT: -0.0162
AAAAGTTG: 0.0761
AGAGCTGG: -0.245
ATTTTTTC: 0.368
AAAACAGC: 0.0387
CTGCCAAC: -0.0291
TCAAGAAA: 0.199
CTTAGTTA: 0.0827
AGTCAGCA: 0.00573
GTCATCAC: 0.0317
ACCCAAGG: -0.0722
CAGACTGA: -0.216
GGGCTGCA: -0.11
ATCATCTA: 0.179
CAAGGAAG: -0.062
CCCTTTAG: -0.0994
ACGCGCGG: -0.31
ACTAAACC: 0.00645
CCAGAATA: 0.175
AGGGTCAC: -0.248

For quick reference, copied from above (series 2):
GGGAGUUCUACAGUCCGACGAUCAGUCCUGUGCUACACAUCGUAUGUACCGAAUCAAACCCCCAAACCCCCAAAUUUAAAAAAGUAUUAUGUUACGCCGUUCGGAUCUGCACUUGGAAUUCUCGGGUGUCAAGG: 1.3
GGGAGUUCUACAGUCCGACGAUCACCAUGCAGGUGGGCAUCUUUGGGAAGUGGGGCAAGGGGGGGAUAGGGAGGGGGGUAACACUGUGGGAACAGGUGGUCCCAGGUCGUUUCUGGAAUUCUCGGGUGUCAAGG: 1.68
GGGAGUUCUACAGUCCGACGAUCCACAGACAACACGCACCCACACAGACACAGAGGGAAGGGGUUGGGAUGGGGACAGGGGGCACAGCAGGGCGGGGUAGGACCCCAGCCCCUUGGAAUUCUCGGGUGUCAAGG: 0.603
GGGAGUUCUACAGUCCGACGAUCUCCUGUGCUACACAUCGUAUGUACCGAAUCGGGGUUUUUUGGUUUUUUGGUUUUUUGGGGAAAGUAUUAUGUUACGCCGUUCGGAUCUGCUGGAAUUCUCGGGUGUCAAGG: -1.46
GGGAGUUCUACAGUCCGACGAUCUCCUGUGCUACACAUCGUAUGUACCGAAUCAAACCCCCCCAAAUUUUUUUAAAUUUAAAAAAGUAUUAUGUUACGCCGUUCGGAUCUGCAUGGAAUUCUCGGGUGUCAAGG: 1.86
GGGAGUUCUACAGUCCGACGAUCUCAAGUCCUGUGCUACACAUCGUAUGUACCGAAUCGGGAGGGUUUUUGGGAGGGAAAGUAUUAUGUUACGCCGUUCGGAUCUGCACUUCCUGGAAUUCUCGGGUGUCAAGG: -0.875
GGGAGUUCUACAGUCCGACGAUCUCCUCAAGUCCUGUGCUACACAUCGUAUGUACCGAAUCGGAGGAGGGGAGGAAAGUAUUAUGUUACGCCGUUCGGAUCUGCACUUCCAGCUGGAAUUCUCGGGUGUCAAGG: -2.53
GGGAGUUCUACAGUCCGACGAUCUCCUGUGCUACACAUCGUAUGUACCGAAUCGGGGAAAAAAAGGGGUGGGGAAAAAGGGGAAAGUAUUAUGUUACGCCGUUCGGAUCUGCAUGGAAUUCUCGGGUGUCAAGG: -1.96
